Published values from different studies.
Every numbered part comes from another study and shows a few of its results, in no order. Positions count from the first letter of the parent shown.

Block 1
Target: CCNA2, cyclin fold, Cln2 fusion (human)
Technique: yeast growth competition, sequencing
Medium: yeast
Notes: strong parent motif
Baseline: not given
Direction: higher = stronger binding
Starting sequence: MICAL3 docking peptide (human); LQLRRQLSFSEDS; partner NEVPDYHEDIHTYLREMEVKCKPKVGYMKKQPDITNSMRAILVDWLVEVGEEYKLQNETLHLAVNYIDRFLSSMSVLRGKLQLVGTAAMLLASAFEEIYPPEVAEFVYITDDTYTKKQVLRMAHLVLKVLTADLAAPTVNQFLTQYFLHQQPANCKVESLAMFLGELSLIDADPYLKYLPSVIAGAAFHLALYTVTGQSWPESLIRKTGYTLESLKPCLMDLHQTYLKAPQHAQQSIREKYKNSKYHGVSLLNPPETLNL
`L3N`: “normalised enrichment score” 0.618.
`L3Q`: “normalised enrichment score” 0.495.
For `R5A`, “normalised enrichment score” read 0.0312.
Under “normalised enrichment score”, `E11H` is recorded as 2.63.
Under “normalised enrichment score”, `E11V` is recorded as 2.82.
`L3Y` — result for “normalised enrichment score”: 3.62.
Under “normalised enrichment score”, `S8K` is recorded as 3.85.
For `Q2K`, “normalised enrichment score” read 4.49.
For `S10E`, “normalised enrichment score” read 2.61.
For `S10I`, “normalised enrichment score” read 2.09.
`Q6M`: “normalised enrichment score” 2.81.
`E11P`: “normalised enrichment score” 2.43.
For `F9L`, “normalised enrichment score” read -0.232.
For `R4A`, “normalised enrichment score” read 2.52.
`L7Q`: “normalised enrichment score” 0.165.
For `E11Q`, “normalised enrichment score” read 3.1.
`Q6I`: “normalised enrichment score” 1.3.
`L3V` — result for “normalised enrichment score”: 5.85.
`E11K` — result for “normalised enrichment score”: 2.95.
Under “normalised enrichment score”, `S10P` is recorded as 2.93.
Under “normalised enrichment score”, `S8M` is recorded as 3.2.
For `Q2I`, “normalised enrichment score” read 2.55.
`L7G` — result for “normalised enrichment score”: -0.254.
`E11A`: “normalised enrichment score” 3.06.
For `L3D`, “normalised enrichment score” read 0.0498.

Block 2
Target: ABI1, truncated, D143A, DHFR fusion (Arabidopsis thaliana)
Technique: DHFR PCA, deep sequencing
Medium: yeast
Notes: methotrexate growth selection, single substitutions
Added: (+)-ABA 17 µM
Baseline: wild-type fitted maximum
Direction: higher = stronger binding
Starting sequence: PYL1, truncated, DHFR fusion (Arabidopsis thaliana); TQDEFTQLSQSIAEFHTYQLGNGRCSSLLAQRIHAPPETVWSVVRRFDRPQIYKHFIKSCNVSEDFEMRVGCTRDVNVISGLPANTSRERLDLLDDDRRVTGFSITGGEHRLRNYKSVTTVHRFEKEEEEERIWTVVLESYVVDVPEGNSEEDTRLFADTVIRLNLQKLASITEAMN
For `E129Q`, “relative binding score” read 85.9%.
`I79G` — result for “relative binding score”: 22.1%.
`G108W`: “relative binding score” -12.4%.
For `V76T`, “relative binding score” read 30%.
`I172H`: “relative binding score” 55.3%.
`H55P` — result for “relative binding score”: 102%.
Under “relative binding score”, `Q19P` is recorded as 81%.
`E129V` — result for “relative binding score”: 86.4%.
`K54Q` — result for “relative binding score”: 0.741%.
`K168D` — result for “relative binding score”: 9.07%.
For `D97G`, “relative binding score” read 80%.
`R45W`: “relative binding score” 8.77%.
Under “relative binding score”, `H55C` is recorded as 96.1%.
For `S63C`, “relative binding score” read 82.4%.
`I79C` — result for “relative binding score”: 89.6%.
`E131W`: “relative binding score” 56.3%.
For `F47Q`, “relative binding score” read -36.8%.
For `S171I`, “relative binding score” read 76.8%.
Under “relative binding score”, `F66Y` is recorded as 73.3%.

Block 3
Target: RING finger protein unkempt homolog, zinc fingers 1-6, GST-SBP tag (UNK, Homo sapiens, UniProt Q9C0B0, residues 30-357)
Chain of UniProt Q9C0B0 (30-357, looked up): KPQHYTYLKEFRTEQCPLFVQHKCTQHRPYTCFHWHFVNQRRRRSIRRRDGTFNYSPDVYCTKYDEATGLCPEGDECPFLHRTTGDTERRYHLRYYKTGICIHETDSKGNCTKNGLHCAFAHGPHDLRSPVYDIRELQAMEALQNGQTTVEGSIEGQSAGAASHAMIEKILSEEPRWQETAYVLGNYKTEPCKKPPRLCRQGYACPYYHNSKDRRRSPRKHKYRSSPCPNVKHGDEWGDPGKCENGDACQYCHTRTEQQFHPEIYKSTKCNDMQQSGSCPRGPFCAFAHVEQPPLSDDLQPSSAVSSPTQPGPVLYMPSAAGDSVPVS
Technique: RNA Bind-n-Seq
Form: RNA
Medium: in vitro
Concentration: not given
Notes: RNA with constant flanks, ends assumed
Baseline: input RNA pool
Direction: higher = stronger binding
Constant ends, left off below: GGGAGUUCUACAGUCCGACGAUC … CAACAGAGGAUUGAGCAUCA
`UGUACAAAUCCUAUAACACCUCUUUGUACACAACCUGACCAGGUUAUUAAAGGGGGUGCCCGUAUUAUUCAGUGCCACAUUCUUAAUGAUAAGAGACAUAUAUUAACCAAAGAUACCAAU` has a bound/input enrichment of 0.171 ratio.
For `CUCUCUGACUAUCAACGUGGACGAGUAGAAAAUGUAUGUAAACGACUCAAUCUCCAGCCUUCCGCUUAUCUUUGGCAAAGAAACCAGGAAGAUUUGCUCCGAGAGAUGAUAGCUUCUAAU`, the bound/input enrichment was 0.263 ratio.
`AGCAUGUUACAGCGGAAAAUUGCAGAGCUCGAGGAAGAACAGUCCCAGGGCUCCACCACAAACCGUGACUGGAUGAAAAACCUCAUCUCCCCUGACUUAGGAGUUGUAUUUCUCAAUGUA` gave a bound/input enrichment of 0.251 ratio.
For `CUUGUUUAUCACAUUGGCCUUACUCCAGCGAAACUUCCAGAUCUAGUGGAGAACAACCCUUCCGUCGCUAUAGAAAUGCUGCUGAAACUGAUGCAGUCAAGCCAGAUCACGGAGUAUUUC`, the bound/input enrichment was 0.518 ratio.
`GAAAAUGCUUUUGAGCGACUGCUGGACAUUAUUACAGAGGAGGGGAACAGUGACGGAGGUACCGCCGUGGAAGAUUGUUUGAUUUUACUUCAAAACUUGUUAAAAACCAACAAUUCCAAU` gave a bound/input enrichment of 0.332 ratio.
`CCCUAAACUGCAUAAUUCUGAAGUUAUAUUUCCUAUACCAUUUCCGUAAUUCUUAUUCCAUAUCCGAAAACUUUGUUAGGCCAAAGACAAAUAGUAGGCAAGAUGGCACAGGGCAUGAAA` has a bound/input enrichment of 0.507 ratio.
`GAUAGGAAAAACUUGUUGGAGACCCGAUUGCACAUCACUGGCAGAGAACUGAGGUCCAAAACCGCUGAAACCUUUGGACUUCAAGAAAAUUAUAUCAAAAUUGUCAUAAAUAAGAAGCAA` has a bound/input enrichment of 0.637 ratio.
For `CAAACACCCUUUGUAUUCCAAAAUAGGGUCUCAAACAUUUUGUAAUUUUCAUUUAAAUUGUCCGGAGGCUUGGAGCUAUUAGUUAAUCUAUCUUCCAAUACACUGUUUAAUAUAGCACUG`, the bound/input enrichment was 2 ratio.

Block 4
Target: RNA binding protein fox-1 homolog 2, RRM domain, GST-SBP tag (RBFOX2, Homo sapiens, UniProt O43251-10, residues 100-194)
Technique: RNA Bind-n-Seq
Form: RNA
Medium: in vitro
Concentration: 365 nM
Notes: natural RNA segment, single round, ends assumed
Baseline: no-protein control
Direction: higher = stronger binding
Constant ends, left off below: GGGAGUUCUACAGUCCGACGAUC … UGGAAUUCUCGGGUGCCAA
Target sequence (chain): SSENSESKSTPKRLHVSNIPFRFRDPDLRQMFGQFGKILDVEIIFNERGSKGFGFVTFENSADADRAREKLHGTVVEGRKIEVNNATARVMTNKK
Under “RBNS enrichment (R)”, `CUAAUCUAGAGCUGACCAGUUUGAGCUGAUUCUCUCUUUGAAGAGUCCUUCUUGAUUGCAGUGCAGUACUGGCAUUUCUGAAUGGAUGUAAGUGGAGUAUUUUAGUCUAA` is recorded as 0.31.
For `UAAGUAUAGCAACUCAAACCAGACCUGCAUCCAUCCGAGACAAACGUUCCUCCUUCACCCUUGUUUUUACUUGAAAUUCGCUAGAAGAAAUGGCGAGCAGACAUCUGUUC`, “RBNS enrichment (R)” read 0.62.
Under “RBNS enrichment (R)”, `UUCCCUUGGGGCUUGCCGGCCAGACUUCUCUCCCCUGCGGCUCCCACCUCUGCCUGACCCCAGCCUUAAACAUAGCCCCUGGCCAGAGGCCUUGCUGGGUGGAGCCUCUG` is recorded as 0.252.
`ACUGUGUUGACACUCAUGACCCUUUUUUUAAACCGUUAAAGGGAAGUUCGGUGUUGGAGCGAUACUCAAUGUAGUCAGUCUACACCUGGACGUGUGGGCCACUUAAGCCC` — result for “RBNS enrichment (R)”: 0.293.
`CUAUGGACUGAGCCGGCCACUCUCUGGCCGAAGUGGCCGCAGGCUGUGCCCCCGAGCUGCCCCCACCCCCUCACAGGGUCCCUCAGAUUAUAGGUGCCCAGGCUGAGGUG`: “RBNS enrichment (R)” 0.405.
For `UACUGGGGAGGAGAGGAGGGCAAGUGAGAGGAGCCAGUGCCUCCUGAAGCCCUUGCUCCACUGCCACCAGCCCGCCUGCCCCAGUGCAGACUGGUCUUCAGGAGUCAGUA`, “RBNS enrichment (R)” read 0.306.
For `CACAUGCAGGUGUCCACCAGCAUAGCCUGCCUGAGAUAGUGUCAUUCCUGGUUCUGGGGAGAAGGGUGUGUGAAGGAGAAUAAAGCAGCCCUUUGUCUUAAAGAAGACUA`, “RBNS enrichment (R)” read 0.674.
`UCAACCUAAGUUGGAAACAGAAAGUGUAAUUAAUAUAACUUAAAUGCAUGUUUGGCAGUUCCAUGUUACAGUCCAUUAGCGAGUGAACUUAGUGCCACAGGUAUUCAUUU`: “RBNS enrichment (R)” 2.11.

Some of these lines once more (block 2):
Under “relative binding score”, `H55C` is recorded as 96.1%.
For `S63C`, “relative binding score” read 82.4%.
`I79C` — result for “relative binding score”: 89.6%.
`E131W`: “relative binding score” 56.3%.
For `F47Q`, “relative binding score” read -36.8%.
For `S171I`, “relative binding score” read 76.8%.
